Experimental data pooled from the literature.
Each line is one published result; not all experiments were run side by side. Numbers after ± are the reported error.
HLA class I histocompatibility antigen, A alpha chain allele A*02:01: HLA class I histocompatibility antigen, A alpha chain, allele A*02:01 (Homo sapiens, UniProt P04439)
Fibroin-modulator-binding protein-1: Fibroin-modulator-binding protein-1 99-193 (Bombyx mori, UniProt Q5FBS0)

The phosphorylation level of `Peginesatide` is reported as 18.6 fold (UT7/EPO; tyrosine phosphorylation, LC-MS/MS phosphoproteomics, GluC, measured: GAB1 tyrosine 183; 10 nM, 15 min, together with: 10 U/mL EPO; baseline: vehicle).
With `triosephosphate isomerase` the co-IP enrichment was 0.692 (co-immunoprecipitation; human RBC cytosol; unit not given, together with: Band 3 peptide 1-56 bait; baseline: negative control).
For `VMRLQSETSV`, “normalised SPR binding response” read 0 normalised RU (human MAGI1-3/6 PDZ construct (MBP fusion); surface plasmon resonance; peptide; concentration not given; higher = stronger binding).
The binding score of `STVQLIMQL` is reported as 46.2% (HLA class I histocompatibility antigen, A alpha chain allele A*02:01; conformational ELISA; peptide; concentration not given; baseline: positive control peptide, direction not given).
`GLMQWNYRA` has a reporter activation of 0.00716% (Jurkat T cells expressing 1G4 TCR; NFAT-eGFP reporter, fluorescence microscopy; peptide; concentration not given, HLA-A*02:01 NY-ESO system).
The MIC of `colistin` is reported as > 64 mg/L (Stenotrophomonas maltophilia; broth microdilution; clinical isolate RKI-No 729/15).
The co-IP enrichment of `tripeptidyl peptidase 2` is reported as 594 (co-immunoprecipitation; human RBC membrane; DSSO crosslinker, unit not given, together with: Band 3 peptide 1-56 bait; baseline: negative control).
For `SVWLRKETRV`, the binding intensity was 0.711 (human SCRIB PDZ3-4 tandem (MBP fusion); automated holdup; peptide, crude extract; concentration not given, uncorrected, unit not given; baseline: biotin control resin, higher = stronger binding).
`LIMQLMPF` has a binding score of 4.2% (HLA class I histocompatibility antigen, A alpha chain allele A*02:01; conformational ELISA; peptide; concentration not given; baseline: positive control peptide, direction not given).
`human delta-aminolevulinic acid dehydratase` gave a co-IP enrichment of 0 (co-immunoprecipitation; human RBC cytosol; unit not given, together with: Band 3 peptide 1-56 bait; baseline: negative control).
The reporter activation of `ALLTWVTQV` is reported as 69% (Jurkat T cells expressing 1G4 TCR; NFAT-eGFP reporter, flow cytometry; peptide; concentration not given, HLA-A*02:01 NY-ESO system).
The relative binding of `GGGAGAACUUCGACCAGAAGAAUGCUAAAAUCCAGCGGCGCACGCGAUGACGGGAGAAACUAUGUGCGCAUACAUGGAUCCUC (ssRNA; 2'-fluoro pyrimidines)` is reported as 73 RU (integrin alphaV/beta3 31-992/27-718 (Homo sapiens); SPR; RNA; together with: MnCl2 1 mM; higher = more binding).
With `GLAQWISGA` the reporter activation was 0.0086% (Jurkat T cells expressing 1G4 TCR; NFAT-eGFP reporter, fluorescence microscopy; peptide; concentration not given, HLA-A*02:01 NY-ESO system).
`epoetin alfa` has a mRNA level of 10 fold (UT7/EPO; RT-qPCR, measured: CCL2; concentration not given, 90 min, normalized to HPRT1; baseline: vehicle).
`ACGTACGTACGT (dsDNA)` has a Kd of 4.82 ± 0.833 µM (Fibroin-modulator-binding protein-1; ITC; double-stranded DNA, one strand shown).
`ALFQWVSQA` gave a reporter activation of 6.51% (Jurkat T cells expressing 1G4 TCR; NFAT-eGFP reporter, flow cytometry; peptide; concentration not given, HLA-A*02:01 NY-ESO system).
`GSGAGQITKV` gave a binding intensity of 0.266 (human MAGI1-3/6 PDZ construct (MBP fusion); automated holdup; peptide, crude extract; concentration not given, uncorrected, unit not given; baseline: biotin control resin, higher = stronger binding).
For `MTVCNASQRQAHAQATAVSL`, the selectivity ratio was 1.6 ± 1.1 (Calu-3; phage binding; peptide; baseline: targeting over control phage).
For `thimet oligopeptidase`, the co-IP enrichment was 0 (co-immunoprecipitation; human RBC membrane; DSSO crosslinker, unit not given, together with: Band 3 peptide 1-56 bait; baseline: negative control).
With `GSGAGSETSV` the binding intensity was 0.213 (human MAGI1-3/6 PDZ construct (MBP fusion); automated holdup; peptide, crude extract; concentration not given, corrected by standard peak, unit not given; baseline: biotin control resin, higher = stronger binding).
`human serum albumin` has a co-IP enrichment of 17.2 (co-immunoprecipitation; human RBC membrane; DMTMM crosslinker, unit not given, together with: Band 3 peptide 1-56 bait; baseline: negative control).
For `GSGAGKETSF`, the binding intensity was 0.0611 (human MAGI1-2/6 PDZ construct (MBP fusion); automated holdup; peptide, crude extract; concentration not given, corrected by standard peak, unit not given; baseline: biotin control resin, higher = stronger binding).
`CCT6A` has a co-IP enrichment of 30.8 (co-immunoprecipitation; human RBC membrane; DMTMM crosslinker, unit not given, together with: Band 3 peptide 1-56 bait; baseline: negative control).
The reporter activation of `GLAQWVPLV` is reported as 0.00834% (Jurkat T cells expressing 1G4 TCR; NFAT-eGFP reporter, fluorescence microscopy; peptide; concentration not given, HLA-A*02:01 NY-ESO system).
For `caspofungin`, the albumin was 32.4 g/L (adult ICU patients, mITT, serum; dose not given, Follow-up).
`QSARYRDTEL` has a binding intensity of 0.68 (human SCRIB PDZ3-4 tandem (MBP fusion); automated holdup; peptide, crude extract; concentration not given, uncorrected, unit not given; baseline: biotin control resin, higher = stronger binding).
`UBE2I` has a co-IP enrichment of 0 (co-immunoprecipitation; human RBC membrane; DMTMM crosslinker, unit not given, together with: Band 3 peptide 1-56 bait; baseline: negative control).
With `GSGAGKESYV` the binding intensity was 0.748 (human SCRIB PDZ3-4 tandem (MBP fusion); automated holdup; peptide, crude extract; concentration not given, uncorrected, unit not given; baseline: biotin control resin, higher = stronger binding).
With `SLLMWVCQV` the reporter activation was 1.93% (Jurkat T cells expressing 1G4 TCR; NFAT-eGFP reporter, flow cytometry; peptide; concentration not given, HLA-A*02:01 NY-ESO system).
For `GSGAGHETIV`, the binding intensity was 0.173 (human MAGI1-2/6 PDZ construct (MBP fusion); automated holdup; peptide, purified PDZ protein; concentration not given, unit not given; baseline: biotin control resin, higher = stronger binding).
`GLAQWIAGA` has a reporter activation of 0.19% (Jurkat T cells expressing 1G4 TCR; NFAT-eGFP reporter, flow cytometry; peptide; concentration not given, HLA-A*02:01 NY-ESO system).
The plasma insulin of `cotadutide` is reported as 6.2 ± 0.7 pg/mL (ob/ob mouse, AMLN diet NASH model; dose not given, terminal, non-fasted).
The co-IP enrichment of `human alpha-enolase` is reported as 0.889 (co-immunoprecipitation; human plasma; unit not given, together with: Band 3 peptide 1-56 bait; baseline: negative control).
The reporter activation of `CLLEWITHV` is reported as 0.171% (Jurkat T cells expressing 1G4 TCR; NFAT-eGFP reporter, fluorescence microscopy; peptide; concentration not given, HLA-A*02:01 NY-ESO system).
The Kd of `CTTACTTACTTA (dsDNA)` is reported as 3.19 ± 0.42 µM (Fibroin-modulator-binding protein-1; ITC; double-stranded DNA, one strand shown).
